Experimental data pooled from the literature.
Protocols differ between the studies behind these lines. ± gives the spread as reported.
Target: Alpha-1A adrenergic receptor (ADRA1A, Homo sapiens, UniProt P35348)
Sequence (P35348 1-466, as in one of the studies): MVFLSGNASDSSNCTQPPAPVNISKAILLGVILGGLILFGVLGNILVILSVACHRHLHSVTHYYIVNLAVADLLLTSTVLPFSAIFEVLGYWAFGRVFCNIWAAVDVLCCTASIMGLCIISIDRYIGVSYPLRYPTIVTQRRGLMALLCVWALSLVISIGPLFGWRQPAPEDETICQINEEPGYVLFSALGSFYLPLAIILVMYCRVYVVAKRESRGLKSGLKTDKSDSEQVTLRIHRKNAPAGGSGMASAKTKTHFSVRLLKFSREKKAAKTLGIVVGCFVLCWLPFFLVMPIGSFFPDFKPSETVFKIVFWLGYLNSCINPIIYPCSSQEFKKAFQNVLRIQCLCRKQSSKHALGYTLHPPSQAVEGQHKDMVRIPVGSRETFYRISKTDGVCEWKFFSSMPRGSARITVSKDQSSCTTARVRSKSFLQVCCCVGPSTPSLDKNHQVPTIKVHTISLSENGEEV

test	system	conditions	scale	endpoint	value	Structure (SMILES)
intracellular Ca2+ mobilization, agonist	COS-7	500 µM	baseline: 3 µM ionomycin	agonist activity	4.9 ± 1.05%	Cc1cc2oc(=O)cc(Cn3ccnc3)c2cc1O
agonist, immunoblot, item: phospho-ERK1/2	HEK293 stably transfected with ADRA1A	10 µM		time to peak ERK phosphorylation	10 min	CNC[C@H](O)c1cccc(OCCOCCOCC#Cc2cccc(Cn3c(-c4ccccc4)c(-c4ccccc4)c4c(=N)n([C@H]5CC[C@H](O)CC5)cnc43)c2)c1
intracellular Ca2+ mobilization, agonist	COS-7	500 µM	baseline: 3 µM ionomycin	agonist activity	29.2 ± 2.07%	COc1ccc2c(CNc3ccc(C)cc3)cc(=O)oc2c1
ligand displacement, radioligand		10 µM		inhibition	< 50%	COc1ccc(C(=O)Nc2c(-c3cccs3)nc3ccccn23)cc1
ligand displacement, radioligand		1 µM		inhibition	0%	O=C1c2sc(-c3ccc(N4CCC(CO)CC4)nc3F)nc2CCN1c1cccnc1
intracellular Ca2+ mobilization, agonist	COS-7	500 µM	baseline: 3 µM ionomycin	agonist activity	2.2 ± 0.81%	Cc1ccc2c(Cn3ccnc3)cc(=O)oc2c1C
cell-free assay, radioligand		10 µM		inhibition	6%	Cn1ccc2cc(-n3c(=O)[nH]c4sc5c(c4c3=O)CCCC5)ccc21
ligand displacement, radioligand		10 µM		inhibition	10%	Brc1ccccc1-c1nnc(CSc2nnnn2-c2ccccc2)o1
antagonist, cell-based		10 µM		inhibition	-0.457%	COc1ncc2nc(C)n(Cc3ncc(S(N)(=O)=O)cc3F)c2c1-c1ccccc1

For quick reference, copied from above:
test	system	conditions	scale	endpoint	value	Structure (SMILES)
ligand displacement, radioligand		1 µM		inhibition	0%	O=C1c2sc(-c3ccc(N4CCC(CO)CC4)nc3F)nc2CCN1c1cccnc1
